Results collected from several papers.
Lines come from different studies, so protocols differ. Several values in a cell are separate wells, animals, samples, runs or records. Numbers after ± are the reported error.
Genome polyprotein NS3 helicase domain: Genome polyprotein, NS3 helicase domain (Hepatitis C virus genotype 1b, UniProt Q9WMX2)
T1: RNA aptamer; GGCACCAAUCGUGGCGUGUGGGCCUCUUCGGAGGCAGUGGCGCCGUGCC

NC(=O)C1=CN([C@@H]2O[C@H](COP(=O)(O)OP(=O)(O)OC[C@H]3O[C@@H](n4cnc5c(N)ncnc54)[C@H](O)[C@@H]3O)[C@@H](O)[C@H]2O)C=CC1 — kcat (ancestral FSP1; oxidoreductase activity, substrate; added: co-substrate 100 µM fixed): 10.7 ± 0.5 s⁻¹
NC(=O)c1cccnc1 — product formation (N-alpha-acetyltransferase 80 (NAA80, Homo sapiens, UniProt Q93015); substrate, DTNB; 2 mM, 30 min, 37 °C, added: acetyl-CoA 500 µM): -2.63 µM
CC[C@H](C)[C@H](NC(=O)[C@H](CCCCN)NC(=O)CNC(=O)[C@@H](NC(=O)[C@@H](NC(=O)[C@H](CCSC)NC(=O)[C@H](Cc1c[nH]cn1)NC(=O)CN)[C@@H](C)O)C(C)C)C(=O)N[C@@H](Cc1ccc(O)cc1)C(=O)N[C@@H](C)C(=O)N[C@@H](C)C(=O)N[C@@H](C)C(=O)N[C@@H](CCSC)C(=O)N[C@H](C(=O)N[C@@H](CCSC)C(=O)N[C@@H](CCC(=O)O)C(=O)N[C@@H](Cc1ccc(O)cc1)C(=O)N[C@@H](Cc1ccc(O)cc1)C(=O)N[C@@H](CCCNC(=N)N)C(=O)N[C@@H](CCC(N)=O)C(=O)N[C@@H](CO)C(=O)N[C@@H](CCCCN)C(=O)N[C@@H](C)C(=O)N[C@@H](CCCCN)C(=O)N[C@@H](CCCCN)C(=O)N[C@@H](CC(C)C)C(=O)N[C@@H](CCC(N)=O)C(=O)N[C@@H](C)C(=O)N[C@@H](CCSC)C(=O)N[C@@H](CCCNC(=N)N)C(=O)O)[C@@H](C)CC — ΔS (Calmodulin-1, Ca2+-bound N-lobe (CALM1, Homo sapiens, UniProt P0DP23); binding, isothermal titration calorimetry; pH 7.4, 15 °C, N-lobe, CaV2.1 IQ domain, added: Ca2+): 19.7 ± 0.9 cal/mol/K
C=CC(=O)N1CCC(COCC(=O)N2CCN(c3nc(-c4cnc(N)nc4C(F)F)nc(N4CCOC[C@@H]4C)n3)CC2)CC1 — remaining binding (Wee1-like protein kinase (WEE1, Homo sapiens, UniProt P30291); KINOMEscan; 1 µM): 98%
CN(CCO)c1ccc(/C=C(\C#N)c2ccc(C#N)cc2)cc1 — Kd (T1, RNA aptamer; fluorescence titration, Hill fit; apparent): 0.14 µM
Nc1nc2c(ncn2[C@@H]2O[C@H](COP(=O)(O)O)[C@@H](O)[C@H]2O)c(=O)[nH]1 — reaction rate (GUK1 (Homo sapiens, UniProt Q16774, Y81A); enzyme activity, NADH-coupled; 2000 µM): 6.19 s⁻¹ and 6.55 s⁻¹ and 4.91 s⁻¹
CN(C)CCC=C1c2ccccc2CCc2ccccc21 — IC50 (Voltage-gated potassium channel, KQT; KCNQ2(Kv7.2)/KCNQ3(Kv7.3) (KCNQ3/KCNQ2, Homo sapiens, UniProt O43525+O43526); potassium current, antagonist, automated patch clamp; HEK293 cells): 9.78 µM
N#Cc1cccc2c1CC[C@H]2NC(=O)c1ccc(SCc2cn3ccccc3n2)cc1 — binding (WD repeat-containing protein 91, residues 392–747 (Homo sapiens, UniProt A4D1P6); SPR dose-response titration; concentration not given, 1:1 binding model): 117% and 113%
N[C@@H](Cc1ccc(O)c(O)c1)C(=O)O — inhibition (Genome polyprotein NS3 helicase domain; DNA binding, inhibitor; hepatitis C virus; 100 µM, added: Cy5-dT15 DNA): 1%
N[C@H](COP(=O)(O)O)Cc1c[nH]cn1 — Km (Delta; substrate, coupled phosphate release): 52 ± 5 µM
CC[C@@H]1[C@H](F)C(=O)N[C@@H]1COc1nccc2cc(C(N)=O)c(OC)cc12 — inhibition (eIF-2-alpha kinase GCN2 (EIF2AK4, Homo sapiens, UniProt Q9P2K8); ATP-site probe binding, ActivX profiling, refers to: GCN2; THP-1 cell lysate; 0.04 mM, Lys2 site): 0.9%
[O-][S+]1CCCCS1 (centres unmarked) — SOD1 monomer fraction (Superoxide dismutase [Cu-Zn] (SOD1, Homo sapiens, UniProt P00441, G94A); LC-MS; human whole blood; 5 µM, 1 h, 37 °C): 99.5%
COc1cc(/C=C/c2cc(/C=C/c3ccc(O)c(OC)c3)n(-c3cccc([N+](=O)[O-])c3)n2)ccc1O — ΔH (haemin; binding, isothermal titration calorimetry; pH 7.4, 37 °C): -23.877 ± 0.0191 kcal/mol
Cc1[nH]c(C)c(S(=O)(=O)Nc2ccc(C(F)(F)F)c(Cl)c2)c1C(=O)N1CCC(F)(F)C1 — Bmax (D(3) dopamine receptor (DRD3, Homo sapiens, UniProt P35462); saturation binding; 100 µM, added: [3H]dopamine): 1900 ± 230 fmol/mg
NCCCCN=C(N)N — inhibition (Genome polyprotein NS3 helicase domain; DNA binding, inhibitor; hepatitis C virus; 100 µM, added: Cy5-dT15 DNA): 1%
COC(=O)c1sc(-c2cccs2)cc1NC(=O)/C=C/C(=O)O — affinity ratio (Fatty acid-binding protein 5 (FABP5, Homo sapiens, UniProt Q01469); 1,8-ANS displacement; baseline: FABP4 over FABP3): 5 to 15 fold
NCC(=O)NCCC(c1ccccc1)c1ccccc1 — inhibition (Genome polyprotein NS3 helicase domain; DNA binding, inhibitor; hepatitis C virus; 100 µM, added: Cy5-dT15 DNA): 0%
O=C1NC(=O)C(c2ccccc2)(c2ccccc2)N1 — activation (Glutamate receptor 2 (Homo sapiens, UniProt P42262); ion current, agonist, SyncroPatch patch clamp; HEK293; 30 µM): 4%
O=c1c(O)c(-c2cc(O)c(O)c(O)c2)oc2cc(O)cc(O)c12 — selectivity ratio (Estrogen receptor (ESR1, Homo sapiens, UniProt P03372); array formation; PRL-HeLa; baseline: EC50 ERβ over EC50 ERα): 5.16
O=C1c2c(O)ccc(O)c2C(=O)c2c(NCCNCCO)ccc(NCCNCCO)c21 — inhibition (Genome polyprotein NS3 helicase domain; DNA binding, inhibitor; hepatitis C virus; 100 µM, added: Cy5-dT15 DNA): 119%
O=C(COC(=O)c1cccc(N2C(=O)C3C4c5ccccc5C(c5ccccc54)C3C2=O)c1)c1ccccc1 (centres unmarked) — activity class (Nuclear receptor ROR-gamma (RORC, Homo sapiens, UniProt P51449); cell-based; concentration not given): active
N#Cc1cccc2c1CC[C@H]2NC(=O)c1ccc(-c2ccco2)[nH]1 — SPR response (WD repeat-containing protein 91, WD40 domain, residues 392–747 (Homo sapiens, UniProt A4D1P6); binding, SPR single-concentration screen; 45 µM): 14.3 RU and 10.5 RU
CC(Oc1ccccc1)C(=O)NCc1ccccn1 (centres unmarked) — fold enrichment (WD repeat-containing protein 91 (Homo sapiens, UniProt A4D1P6); binding, affinity selection mass spectrometry; baseline: other proteins in batch): 0.955
CC(C)(O)c1ccc(-c2nc3cc(NC(=O)c4ccc(-c5ccccc5)nc4)ccc3c(=O)[nH]2)cc1 — selectivity ratio (Poly [ADP-ribose] polymerase tankyrase-2 (TNKS2, Homo sapiens, UniProt Q9H2K2); PARylation, inhibitor, biochemical PARylation; baseline: TNKS1 IC50 over TNKS2 IC50): 49.6
CCCCC[S+]([O-])c1n[nH]c(N)n1 (centres unmarked) — fold enrichment (SPRY domain-containing SOCS box protein 2, SPRY domain (Homo sapiens, UniProt Q99619); binding, affinity selection mass spectrometry; baseline: other proteins in batch): 0.874
Oc1ccc(O)cc1 — inhibition (Genome polyprotein NS3 helicase domain; 100 µM): 0%
COc1cc(O)c2c(c1)oc(=O)c1c3cc(O)c(O)cc3oc21 — ΔG (Alpha-glucosidase MAL12 (MAL12, Saccharomyces cerevisiae S288c, UniProt P53341); fluorescence quenching; 310 K): -1.47 kcal/mol
CC(C)c1ccc2c(c1)c(SC(C)(C)C)c(CC(C)(C)C(=O)O)n2Cc1ccc(Cl)cc1 — inhibition (Genome polyprotein NS3 helicase domain; DNA binding, inhibitor; hepatitis C virus; 100 µM, added: Cy5-dT15 DNA): 0%
Clc1ccc(C(c2c[nH]c3ccccc23)c2c[nH]c3ccccc23)cc1 — activation (Nuclear receptor subfamily 4 group A member 3, ligand-binding domain (Homo sapiens, UniProt Q92570); reporter gene, Gal4 hybrid reporter; 10 µM; baseline: vehicle): 1.1 fold

A few entries again:
N[C@H](COP(=O)(O)O)Cc1c[nH]cn1 — Km (Delta; substrate, coupled phosphate release): 52 ± 5 µM
CC(Oc1ccccc1)C(=O)NCc1ccccn1 (centres unmarked) — fold enrichment (WD repeat-containing protein 91 (Homo sapiens, UniProt A4D1P6); binding, affinity selection mass spectrometry; baseline: other proteins in batch): 0.955
CN(C)CCC=C1c2ccccc2CCc2ccccc21 — IC50 (Voltage-gated potassium channel, KQT; KCNQ2(Kv7.2)/KCNQ3(Kv7.3) (KCNQ3/KCNQ2, Homo sapiens, UniProt O43525+O43526); potassium current, antagonist, automated patch clamp; HEK293 cells): 9.78 µM
NCC(=O)NCCC(c1ccccc1)c1ccccc1 — inhibition (Genome polyprotein NS3 helicase domain; DNA binding, inhibitor; hepatitis C virus; 100 µM, added: Cy5-dT15 DNA): 0%
